Experimental data from different studies.
Numbered parts are unrelated; each lists some results of a single study. Substitutions count along the parent as printed.

Sample 1 — technique: aptamer microarray, sandwich; molecule type: DNA with 2'F-ANA; sample: in vitro; tested at: 200 nM; added: Cy3 exosite-II aptamer, 400 nM; direction: higher = stronger binding; strand: GGTTGGTGTGGTTGG
Target: Prothrombin, mature alpha-thrombin (F2, Homo sapiens, UniProt P00734)
Notes: whole 15-mer aptamer, many near background
| Modification | mean fluorescence intensity [a.u.] |
| --- | --- |
| 2'F-ANA at 2 4 6 7 8 11 15 | 221 |
| 2'F-ANA at 1 3 4 6 7 10 11 12 13 14 15 | 56.6 |
| 2'F-ANA at 1 2 3 5 6 7 8 9 11 12 13 15 | 73.8 |
| 2'F-ANA at 1 2 4 6 10 12 13 14 15 | 69.1 |
| 2'F-ANA at 2 3 4 6 9 10 12 14 | 167 |
| 2'F-ANA at 1 2 3 4 6 7 8 9 10 12 15 | 73.9 |
| 2'F-ANA at 6 8 10 11 13 14 15 | 140 |
| 2'F-ANA at 1 5 7 11 12 13 | 115 |
| 2'F-ANA at 5 6 7 9 12 13 14 | 48.7 |
| 2'F-ANA at 2 3 4 6 7 8 12 14 15 | 340 |
| 2'F-ANA at 1 7 9 10 13 15 | 77.1 |
| 2'F-ANA at 4 7 9 10 12 14 15 | 72.9 |
| 2'F-ANA at 2 3 5 6 11 15 | 68.8 |
| 2'F-ANA at 2 4 5 6 8 11 14 | 48.4 |
| 2'F-ANA at 1 5 6 7 8 10 14 15 | 46.9 |
| 2'F-ANA at 1 2 3 6 10 11 | 56.5 |
| 2'F-ANA at 1 3 4 8 9 10 13 14 | 50.1 |
| 2'F-ANA at 2 3 4 6 7 9 11 12 | 634 |
| 2'F-ANA at 1 2 5 6 7 10 12 | 65.2 |
| 2'F-ANA at 3 5 6 9 10 11 14 15 | 50.3 |

Sample 2 — technique: RNA Bind-n-Seq; molecule type: RNA; sample: in vitro; tested at: 365 nM; baseline: no-protein control; direction: higher = stronger binding
Target: RNA binding protein fox-1 homolog 2, RRM domain, GST-SBP tag (RBFOX2, Homo sapiens, UniProt O43251-10, residues 100-194)
Notes: natural RNA segment, single round, ends assumed
Shared flanks, not repeated: GGGAGUUCUACAGUCCGACGAUC … UGGAAUUCUCGGGUGCCAA
Construct (chain): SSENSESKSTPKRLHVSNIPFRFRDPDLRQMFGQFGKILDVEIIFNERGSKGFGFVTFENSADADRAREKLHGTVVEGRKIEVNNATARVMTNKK
| Strand | RBNS enrichment (R) |
| --- | --- |
| CCGUCCUGCCCCUGCUGUCAGAGAUUUUUUUCUCCAGAGAGGUGCCUGUCCUGUGCUUGGAUAGUCAGUUGGUUAUUUGUGUAUGAAACAAUGUACAAAUCAAUGUUUUG | 0.474 |
| UCCCAAGGAGCUUCGUGAACUGGCAGAGGCUGAAGCGAUCCAGUUGGGCCUCUCUUGACUAUAGCAGGCUGCUGCUGCGGCUUGUCUGGACACCUGGGGACUUCCCCGCC | 0.316 |
| UUGACGUUUUAUUAAUAUUUUUUAAAUUGUUACGUUUAUAAAUUUGGUACUUAAGGCACAGCCAGUAUGAGACACUGAAUGCGACAUUUAUUAUAAAGAGCUGCUGCACU | 0.894 |
| GCCACCACAUGGCCCAGCAUCUCUGCCAAACACAGUUGCUUCUAGUCUGGCCAGUGCCAAGAGACAACAUAACAUGGCAGGUGGAUGGUGUCGGUGUCAUUGUCUCAGCU | 0.283 |
| ACUGUGCCUAGCCGGGGCUGCCACAGCUCCCAGGUAUUUUCUACAGGACCAUCUGAGCGGGCAGCCAAACCUGCUUCACAGUAUCAAUAAAGCGGUUCUUUGAGGUCUGG | 0.327 |
| GGUCAGGCUGCACUUCUGUUUCUGUCUUUUGCUCAACAGCGGGGUGUGCACUCGUGGCUGCACAGAUGAAGCCCAUGCUGAGUCUGUGGGAACACCCACACUCAGUGCAC | 0.19 |
| UUAGGACUGUUUCUCUCUAAGACACCAUUGUUUUCCCUUAUUUUAAAAGUGAUUUUUUUAAGGACAGAACUUCUUCCAAAAGAGAGGGAUGGCUUUCCCAGAAGACACUC | 0.281 |
| GCUGGUAUCACAAGACCCUGAUACACAUUUCAGUGUUCCUAGCCCUUCUUGUCCUCCCUACCCUAAACUGCCCCCAACUCACAGGCUUCCCGUCCCCCAGCUGCCUGUCC | 1.79 |
| UAUGUUGAUGUAGCAUCAUUUUGUGGAUAGGAAAAAAAAUGUUUGACCUUCAGAUAUUUUCUACUUAAAAAAUUGUGGAUGAACGCCCUAUCUCCCUCCCACAGUGGAGU | 0.393 |
| ACCCGUCACAAUAAACCAUUCUCAAGUUAUCUAUGUGUGUGUGUAUAUAUAUCUCAGGUUUUUAGACUGGUUGACAGAACAAAGCCUGUUUUAACAGUGGAACCUUAAAG | 0.347 |
| CGUGACUCUGUGGGGCUUCUUUCUCCUUUUCACUUUCCCCUUUAACCCAUGUCUGACUUAGUGCUGCCUGUGUUGGUAAGAGUCAGCAAGUGCCCUUAGGAAGCCACACG | 1.08 |
| UGCGGGAUUGUCAGUGGCAUUUAGUUGAGAGUUGAGGGGCUUUGGCCUGAAAUAAACUGCAAGUAUUAAGACUGUUGUUGCAAUUUGUGUCUAACAAGCUGUAGCAGGGU | 0.498 |

Sample 3 — technique: protein binding microarray; molecule type: double-stranded DNA, one strand shown; sample: in vitro; tested at: not given; baseline: not given; direction: higher = stronger binding
Target: Histone acetyltransferase KAT6A, both winged helices, GST fusion (KAT6A, Homo sapiens, UniProt Q92794, residues 1-181)
Notes: 8-mer, flanks averaged, mean of 2 arrays, mostly near background
Residues (chain): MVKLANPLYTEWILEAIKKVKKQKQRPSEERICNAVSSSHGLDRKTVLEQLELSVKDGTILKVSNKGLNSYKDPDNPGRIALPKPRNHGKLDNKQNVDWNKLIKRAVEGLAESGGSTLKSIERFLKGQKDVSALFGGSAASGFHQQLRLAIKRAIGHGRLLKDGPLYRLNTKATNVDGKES
| Strand | E-score |
| --- | --- |
| GCAATTCA | 0.0793 |
| ACTGACCC | -0.122 |
| CTAGGGTA | -0.0981 |
| CGGCAGTA | 0.225 |
| CAGTCAGG | -0.203 |
| CACTGTGC | 0.082 |
| TAACGAAA | 0.0808 |
| AGTAATCG | -0.0982 |
| ACGTCGGG | 0.205 |
| AAGATCCG | 0.0823 |
| AGTCATCC | -0.0775 |
| CCCTTGAG | -0.134 |
| AACCAACT | -0.118 |
| AGATTTTG | -0.128 |
| AATACGAT | 0.0325 |
| CCTCACCG | 0.00438 |
| CCCACCAG | -0.232 |
| CGGAAACG | 0.295 |
| CTAACCCA | -0.171 |

Sample 4 — technique: DHFR PCA, deep sequencing; sample: yeast; added: (+)-ABA 58 µM; baseline: wild-type fitted maximum; direction: higher = stronger binding
Target: ABI1, truncated, D143A, DHFR fusion (Arabidopsis thaliana)
Notes: methotrexate growth selection, single substitutions
Starting sequence: PYL1, truncated, DHFR fusion (Arabidopsis thaliana); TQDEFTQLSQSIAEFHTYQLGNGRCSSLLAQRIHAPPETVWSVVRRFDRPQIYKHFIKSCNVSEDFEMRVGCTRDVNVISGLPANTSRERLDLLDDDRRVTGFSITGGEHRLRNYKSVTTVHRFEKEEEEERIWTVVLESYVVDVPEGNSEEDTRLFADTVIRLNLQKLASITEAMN; partner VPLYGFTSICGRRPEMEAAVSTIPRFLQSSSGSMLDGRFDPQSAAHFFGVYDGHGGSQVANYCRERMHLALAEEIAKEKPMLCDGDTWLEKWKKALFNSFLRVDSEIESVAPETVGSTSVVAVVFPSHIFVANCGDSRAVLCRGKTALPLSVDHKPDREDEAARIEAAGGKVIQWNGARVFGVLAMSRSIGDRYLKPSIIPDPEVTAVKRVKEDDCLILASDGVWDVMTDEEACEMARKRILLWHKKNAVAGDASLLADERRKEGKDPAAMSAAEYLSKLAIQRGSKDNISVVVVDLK
| Variant | relative binding score [%] |
| --- | --- |
| V62E | 3.95 |
| S11F | 75.2 |
| T154R | -1.44 |
| F56A | 7.75 |
| Q31Y | 40.1 |
| V142N | 54.4 |
| S117M | 5.5 |
| M68Y | 76.9 |
| T17N | 64.8 |
| T17S | 92.9 |
| T135F | -1.77 |
| G81T | 20.1 |
| F15S | 41.1 |
| E38T | 64.9 |
| Y115D | 1.5 |

Sample 5 — technique: RNA Bind-n-Seq; molecule type: RNA; sample: in vitro; tested at: not given; baseline: input RNA pool; direction: higher = stronger binding
Target: RING finger protein unkempt homolog, zinc fingers 1-6, GST-SBP tag (UNK, Homo sapiens, UniProt Q9C0B0, residues 30-357)
Notes: RNA with constant flanks, human and mouse sites, ends assumed
Shared flanks, not repeated: GGGAGUUCUACAGUCCGACGAUC … CAACAGAGGAUUGAGCAUCA
Residues (chain): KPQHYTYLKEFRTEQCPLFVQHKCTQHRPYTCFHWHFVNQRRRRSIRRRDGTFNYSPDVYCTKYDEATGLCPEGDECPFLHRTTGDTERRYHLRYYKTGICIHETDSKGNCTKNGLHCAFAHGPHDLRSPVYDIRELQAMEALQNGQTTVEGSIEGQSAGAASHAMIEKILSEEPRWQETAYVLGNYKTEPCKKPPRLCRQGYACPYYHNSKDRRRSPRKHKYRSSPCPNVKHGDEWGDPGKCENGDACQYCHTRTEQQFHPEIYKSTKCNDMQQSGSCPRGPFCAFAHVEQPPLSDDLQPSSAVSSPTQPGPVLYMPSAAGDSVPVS
| Strand | bound/input enrichment [ratio] |
| --- | --- |
| UAUAUGAAGGUUAUAGAACGAGCGGCUUUUCCUCGGCGUCUCUGGGAACGGGUCCGGCUUAGUAAAAACUAUGAGAAAGCACUGGAGCAAAUAGAUGAAAAUCUGAUUUACUGGCCCCGU | 0.597 |
| CAAGGCAGCCAGACUGCAUUUAGCCCAGAGUCCUUAUUUUAUGUUGUUUGGAAGAUUAUGCCAAACUUUAGGGGCUAUCAACAGCAGGACGCCCAUGAAUUCAUGCGCUACCUUUUGGAC | 0.338 |
| GAAAUAAAUGUGGAAGCUAAGCAAGUUAAGGAUAUCAUGAAAACACUCGAGAGCUUCAAACUAGACAUCACUUCUUUGCAAGCUGCACAACAUGAAUUUCCAGCUGCUGAAGGAGAAGUC | 0.387 |
| AUCGCACAGGAUCUUCAACAACUGCAACAGCUUCAACAGCAGAAUCUCAACCUGCAACAGUUUGUGUUGGUGCAUCCAACCACCAAUUUGCAGCCAGCGCAGUUUAUCAUCUCACAGACG | 0.131 |
| ACCCCAAAAACCUUAAUUUUCUUUCUUGUUCGGUACCUACAUUGGAACCAUCAAAAACAAUUAUUUCAGUAAACCGUAGCCAUGAGGGAAAUCGUGCACAUCCAGGCCGGACAGUGUGGC | 0.261 |
| CCGGACGACGGGCUCACAGCGCAGCAGCUCUUCAACUGCGGGGACGGCCUCACCUACAAUGAUUUUCUCAUUCUUCCUGGGUAUAUCGACUUCACUGCAGAUCAGGUGGACUUGACGUCU | 0.186 |
| UAAAUGGUAUUUUUUUUAAAUGUCAGCUCUUCCAUAAUUCAGUCUAGAUAGGAGAUUAUUUAACUGAAGAUCUUGGUGAGUGUCAUUUUUUUUUCUUUUUUCUUUUUUUGGUUUUUCAAG | 1.77 |
| GAUGAAAAGCCAGUGAGUGUUAAUGAAGUACCAGACUACCAUGAGGAUAUUCACACAUACCUUAGGGAAAUGGAGGUUAAAUGUAAACCUAAAGUGGGUUACAUGAAGAAACAGCCAGAC | 0.16 |
| ACAGAAUGGAGCUAUGGACGUUAAUUUGACCGUCUACUCCAAUCCCCGCCAAGAGACUGGCAUAGCUGGACAUCCAACAUACCAAUUUUCUGCUAAUACAGGUCCUGCACAUUACAUGAC | 0.141 |
| AAGAAGGAAGGAGAGAACUUCAAAGCUCUUUACAGGUCUGGUGUGGCCUUCUAUCAUCUUGGGGACUAUGAUAAAGCUCUCUACUACCUAAAAGAAGCAAGGACCCGACAACCCACAGAC | 0.0738 |
| AUCUGUUUCACUCUACUAUACUGGAGAGAAAGGUCAAAGGCAAGAGAGAACUGGAAAGACCAGCACUUGGAGUGGUAAGUUAAAGGGUUUAUUGUGUAGUGGGAACAGGAAUCAUUUGUA | 0.472 |

Some of these lines once more (sample 2):
| Strand | RBNS enrichment (R) |
| --- | --- |
| GGUCAGGCUGCACUUCUGUUUCUGUCUUUUGCUCAACAGCGGGGUGUGCACUCGUGGCUGCACAGAUGAAGCCCAUGCUGAGUCUGUGGGAACACCCACACUCAGUGCAC | 0.19 |
| CCGUCCUGCCCCUGCUGUCAGAGAUUUUUUUCUCCAGAGAGGUGCCUGUCCUGUGCUUGGAUAGUCAGUUGGUUAUUUGUGUAUGAAACAAUGUACAAAUCAAUGUUUUG | 0.474 |
| ACUGUGCCUAGCCGGGGCUGCCACAGCUCCCAGGUAUUUUCUACAGGACCAUCUGAGCGGGCAGCCAAACCUGCUUCACAGUAUCAAUAAAGCGGUUCUUUGAGGUCUGG | 0.327 |
| UAUGUUGAUGUAGCAUCAUUUUGUGGAUAGGAAAAAAAAUGUUUGACCUUCAGAUAUUUUCUACUUAAAAAAUUGUGGAUGAACGCCCUAUCUCCCUCCCACAGUGGAGU | 0.393 |
| ACCCGUCACAAUAAACCAUUCUCAAGUUAUCUAUGUGUGUGUGUAUAUAUAUCUCAGGUUUUUAGACUGGUUGACAGAACAAAGCCUGUUUUAACAGUGGAACCUUAAAG | 0.347 |
